Results pooled from the literature.
Each numbered part is a random draw from the data of one study; scales do not carry over between parts.

Study 1 — method: protein binding microarray; molecule type: double-stranded DNA, one strand shown; matrix: in vitro; tested at: not given; reference: not given; direction: higher = stronger binding; measurement: E-score
Target: Histone acetyltransferase KAT6A, winged helix 2, GST fusion (KAT6A, Homo sapiens, UniProt Q92794, residues 85-181)
Setting: 8-mer, flanks averaged, mean of 2 arrays, mostly near background
Target sequence (chain): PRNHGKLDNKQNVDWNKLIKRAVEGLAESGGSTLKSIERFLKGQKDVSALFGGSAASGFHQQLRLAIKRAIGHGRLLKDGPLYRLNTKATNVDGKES
Sequence = CTGTTCAA; result = -0.0157
Sequence = GATCGGCA; result = 0.0929
Sequence = TACGCTCA; result = -0.0204
Sequence = ATGGACTC; result = -0.115
Sequence = CAATGAAA; result = -0.0427
Sequence = AAGTTACT; result = -0.0898
Sequence = GATGCCTA; result = -0.0433
Sequence = CCACCTTC; result = -0.0823
Sequence = CTCGCGCC; result = 0.259
Sequence = AGAGGTCG; result = 0.171
Sequence = AGCGTCCA; result = -0.00938
Sequence = GGAGAGTA; result = 0.0333
Sequence = CGGGTCAA; result = 0.121
Sequence = AAACACAC; result = 0.114
Sequence = GAGAGGAC; result = -0.0901
Sequence = ATATCTTG; result = 0.086
Sequence = CTGACCGC; result = 0.175
Sequence = TAGCTTAA; result = -0.0148
Sequence = GAGGATCA; result = 0.017
Sequence = TCTTATAA; result = -0.0736
Sequence = GCTTGGCA; result = -0.0343
Sequence = CACCGAGC; result = 0.253
Sequence = AGTCGAGA; result = -0.0651
Sequence = CAGTAATA; result = 0.0291
Sequence = CCCATTTA; result = -0.0154

Study 2 — method: aptamer microarray, sandwich; molecule type: DNA with 2'F-ANA; matrix: in vitro; tested at: 200 nM; with: Cy3 exosite-II aptamer, 400 nM; direction: higher = stronger binding; measurement: mean fluorescence intensity; sequence: GGTTGGTGTGGTTGG
Target: Prothrombin, mature alpha-thrombin (F2, Homo sapiens, UniProt P00734)
Setting: whole 15-mer aptamer, many near background
Modification = 2'F-ANA at 6 9 11 12 14; result = 257 a.u.
Modification = 2'F-ANA at 1 2 3 5 6 11 14 15; result = 49.1 a.u.
Modification = 2'F-ANA at 3 5 13 14; result = 55.4 a.u.
Modification = 2'F-ANA at 2 3 4 6 8 12; result = 846 a.u.
Modification = 2'F-ANA at 1 3 5 7 8 9 10 11 12 15; result = 53.8 a.u.
Modification = 2'F-ANA at 5 11 14; result = 44.5 a.u.
Modification = 2'F-ANA at 1 2 5 6 8 10 11 13 14; result = 47.8 a.u.
Modification = 2'F-ANA at 1 2 9 10 11 14; result = 65.6 a.u.
Modification = 2'F-ANA at 3 4 7 9 10 11 13 14 15; result = 210 a.u.
Modification = 2'F-ANA at 1 5 7 8 14 15; result = 61.9 a.u.
Modification = 2'F-ANA at 1 3 5 7 8 13 14; result = 51.8 a.u.
Modification = 2'F-ANA at 1 3 4 5 7 10 11 12; result = 46.6 a.u.
Modification = 2'F-ANA at 3 4 8 11 12 14; result = 397 a.u.
Modification = 2'F-ANA at 2 3 5 6 7 8 9 10 14 15; result = 53.5 a.u.
Modification = 2'F-ANA at 2 6 9 10 12; result = 150 a.u.
Modification = 2'F-ANA at 2 4 8 9 10 11 13 14; result = 59.5 a.u.
Modification = 2'F-ANA at 1 3 5 6 7 8 10 15; result = 52.3 a.u.
Modification = 2'F-ANA at 1 4 7 8 13 14 15; result = 117 a.u.
Modification = 2'F-ANA at 2 4 6 7 8; result = 409 a.u.
Modification = 2'F-ANA at 5 6 8 10 12 14; result = 54.7 a.u.
Modification = 2'F-ANA at 2 3 5 6 8 9 11 12 15; result = 154 a.u.

Study 3 — method: RNA Bind-n-Seq; molecule type: RNA; matrix: in vitro; tested at: 365 nM; reference: no-protein control; direction: higher = stronger binding; measurement: RBNS enrichment (R)
Target: RNA binding protein fox-1 homolog 2, RRM domain, GST-SBP tag (RBFOX2, Homo sapiens, UniProt O43251-10, residues 100-194)
Setting: natural RNA segment, single round, ends assumed
Shared flanks, not repeated: GGGAGUUCUACAGUCCGACGAUC … UGGAAUUCUCGGGUGCCAA
Construct (chain): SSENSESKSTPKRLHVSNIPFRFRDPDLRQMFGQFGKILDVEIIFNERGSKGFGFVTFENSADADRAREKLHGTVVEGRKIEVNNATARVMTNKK
Sequence = UUUUUUAAUUACCCUUUUGCAGGCUCCCACCUUUAAUCUGUUUUAUACCUUGCUUAUUAAAUGAGCGACUUAAAAUGAUUGAAAAUAAUGCUGUUCUUUAGUAGCAACUA; result = 0.353
Sequence = AGUGCUAAAUAAGCAUGUAUGAAAUUGAAUGGUUGUGAUGGCUGGUGGGCGGGGGCAAAGAGCCUACCAUCUCUGCCUGAGACAUCAGUUUAUACCAGACCAUUUUUACU; result = 0.469
Sequence = UAAAAGACAGAGGUGCUUGAAAAAGACAUUAAAAUCCUUACAAAGAAUGUACAUCAUCCCUCUUGGCCCAUUACAGUACUGCUCUCAGGUUCCUAUCAGUCCAUAUAAAC; result = 0.345
Sequence = AUAUAGAGUGACUUGGAGAGAGAUUCAGAAGUUAGGGGUAGCGGGGGUAGGAUGGUUGGGACCAGAUUGACUACCCUGUACCCUUCCUUCUUCCCCAAUAUGCCUGCGCC; result = 0.905
Sequence = CUAAGUUGCACCAACUUUGAAGUCUGAUUUUCCUGGACAGUUUUCUGCUUUAAUUUCAUGAAAAGAUUAUGAUCUCAGAAAUUGUAUCUUAGUUGGUAUCAACCAAAUGG; result = 0.393
Sequence = AUAUCCAAGUGCUUCCUCCAAGUCAACAUGUAUUUCCUCUCCCCAUUUUCAGGCCCUGUGGGGCUCCUGAGGUUCAGUAGCUGGGAUGUUCCCUCUUUCCUUCAAGUGCC; result = 0.655
Sequence = CUAGUCUCAAAGAUCAAGUUGGUCUGAGGAGCCGGAUGUGACUGUGGGUGUUGGCUGGGGCAUUAAAACUCAUCAUCGCCACCCAUCUCUGUCUCUCGUCACCCUGAUCU; result = 0.236
Sequence = ACCACUUCAUUAGAGCACUUGCUGCAGAGGCAGAGAGCAGAGCCGCCAGGAUAAAUUCUGCUUCCACCCCACAAAGGCAGUCACAGGAGAGAGUGGAGAGAGCAGUAAGG; result = 0.196
Sequence = UGACACACUUGGCCCUCGAUGUAUGAAAUCUUGACCAGAAUUAAAAGCAAAGACGUCUCUCCUGUCCAGCUUGUGUGGGUCUGUGUGUCCUGCCCUUAGUCAUUCCUAGU; result = 0.864
Sequence = CCUGCUCUAGGGCCUGCCCAGCCCUGAGGGAGGCUAGUCAGCGCCUCCCUACUGCGCCCCUGUAGGCAGGAGGAAGCAGCCCAUCAGCCUAGGAAGCCAACAGCAGGGCA; result = 0.387
Sequence = GGAAAAGCUUGGGCGGUGCCCAGCGUGCCCGCUGCCCAUCGACGUCUGUCCUGGGGACGUGGAGGGUGGCAGCGUCCCCGCCUGCACCAGUGCCGUCCUGCUGAUGUGGU; result = 0.535
Sequence = ACUCAGGACUGCUCCUGGAAGACAUCUCAAGGUGGGAAGCCUGGCUUUCCUGGGCUUUGCUUUCUUAACUCCCACCAUCCAGGCCUCCUCUAGAGUCCACUGAGUCACAA; result = 0.173

Study 4 — method: RNA Bind-n-Seq; molecule type: RNA; matrix: in vitro; tested at: 200 nM; setting: whole 134-nt RNA, ends assumed; with: 150 mM KCl; reference: input library; direction: higher = stronger binding; measurement: log2 enrichment
Target: Ras GTPase-activating protein-binding protein 1, full length (G3BP1, Homo sapiens, UniProt Q13283)
Chain of UniProt Q13283 (whole entry, looked up): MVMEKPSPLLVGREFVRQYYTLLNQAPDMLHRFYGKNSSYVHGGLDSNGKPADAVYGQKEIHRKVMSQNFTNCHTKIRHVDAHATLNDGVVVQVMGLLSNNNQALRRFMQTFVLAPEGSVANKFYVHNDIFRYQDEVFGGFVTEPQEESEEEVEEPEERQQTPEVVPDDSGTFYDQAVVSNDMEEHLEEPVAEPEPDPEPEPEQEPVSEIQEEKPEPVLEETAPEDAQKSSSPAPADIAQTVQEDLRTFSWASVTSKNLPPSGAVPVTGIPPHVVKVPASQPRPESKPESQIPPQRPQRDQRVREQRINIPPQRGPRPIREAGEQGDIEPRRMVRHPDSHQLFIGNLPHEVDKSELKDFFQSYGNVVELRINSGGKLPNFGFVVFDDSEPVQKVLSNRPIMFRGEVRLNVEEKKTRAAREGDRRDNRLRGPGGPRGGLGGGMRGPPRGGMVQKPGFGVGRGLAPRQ
Shared flanks, not repeated: GGGAGUUCUACAGUCCGACGAUC … UGGAAUUCUCGGGUGUCAAGG
Sequence = UAACUUUAGAGGAGGACCUGAUGGAUAUGGCAGUGGACGUGGAUUUGGGGAUGGCUAUAAUGGGUAUGGAGGAGGACCUGGAGGUGGCAA; result = 0.356
Sequence = UGGCCCUGGUGGCAUGCGGGGAGGAAGAGGUGGCCUCAUGGAUCGUGGUGGUACCGGUGGAAUGUUCAGAGGUGGCCGUGGUGGAGACAG; result = 0.254
Sequence = AAGUCCUGUGCUACACAUCGUAUGUACCGAAUCGGGGCCCCGGCCCCGGGCCCCGGAAAGUAUUAUGUUACGCCGUUCGGAUCUGCACUU; result = -0.919
Sequence = UGAUCAGCAAAGCCAAGAUGAGCCUUUGAGAAGCAGAAAAGUGUUUGUGGGGCGCUGUACAGAGGACAUGACUGAGGAUGAGCUGCGGGA; result = -0.149
Sequence = UCAAGUCCUGUGCUACACAUCGUAUGUACCGAAUCGGCCGGGCCGGGGCCGGGGAAAGUAUUAUGUUACGCCGUUCGGAUCUGCACUUCC; result = -0.411
Sequence = UGGCCAAUAGCAUCCUUUUCCAGUCUUCCGGUCUGACAAAUGGAAUAAUAGAAGAAAAGGACAUACAUGAAGAAUUGCCAAAACGGAAAG; result = -0.288
Sequence = CUGUGCUACACAUCGUAUGUACCGAAUCGGGGAAAAAAAGGGGAAAAAAAGGGGAAAGGGGAAAGUAUUAUGUUACGCCGUUCGGAUCUG; result = -0.122
Sequence = UUUUCAUACCGAUCUAGAGUUCGUCCUUGCGUGGUUUAUGGUGGUGCCGAUAUUGGUCAGCAGAUUCGAGACUUGGAACGUGGAUGCCAU; result = -0.102
Sequence = AAGUCCUGUGCUACACAUCGUAUGUACCGAAUCGGCCCCGGCCCCGGGGCCCCGGGGAAAGUAUUAUGUUACGCCGUUCGGAUCUGCACU; result = -0.552
Sequence = CCUGUGCUACACAUCGUAUGUACCGAAUCGGGCCCCCCCGGCCCCCCCGGGCCCCCCCGGGAAAGUAUUAUGUUACGCCGUUCGGAUCUG; result = -0.264
Sequence = CAAGUCCUGUGCUACACAUCGUAUGUACCGAAUCGGUUUUUGGUGGUUUUUUUGGAAAGUAUUAUGUUACGCCGUUCGGAUCUGCACUUC; result = -1.12
Sequence = UAACUUUAGAGGAGGAUCUGAUGGAUAUGGCAGUGGACGUGGAGUUGGGGAUGGCUAUAAUGGGUAUGGAGGAGGACCUGGAGGUGGCAA; result = 0.418
Sequence = UCAUGUGGAUGAAGCAGAAAAAGAAGCUCAGAAGAAGCCAGCUGAAUCUCAAAAAAUAGAGCGUGAAGAUGCCCUGGCUUUUAAUUCAGC; result = -0.984
Sequence = AAGUCCUGUGCUACACAUCGUAUGUACCGAAUCGGUUUUUUUGGUUUGGUUUUUGGAAAGUAUUAUGUUACGCCGUUCGGAUCUGCACUU; result = -1.14

Study 5 — method: universal PBM; molecule type: double-stranded DNA, one strand shown; matrix: in vitro; tested at: not given; direction: higher = stronger binding; measurement: E-score
Target: Sal-like protein 4, full length isoform B (SALL4, Homo sapiens, UniProt Q9UJQ4-2, residues 1-616)
Setting: 8-mer, flanks averaged, mean of replicates
Sequence = CCTCTCCC; result = -0.215
Sequence = CCTTCAGA; result = -0.0885
Sequence = GAAACACC; result = -0.038
Sequence = ATAACGCA; result = 0.251
Sequence = TACCATGA; result = 0.133
Sequence = AAACCGGA; result = 0.0496
Sequence = GCCCAAAC; result = -0.178
Sequence = AGGAACAA; result = -0.0367
Sequence = TCCCCTAA; result = 0.0303
Sequence = CTGGATTC; result = -0.102
Sequence = CTTGTGAC; result = -0.0957
Sequence = CATCATGG; result = -0.167
Sequence = AGCAAGTC; result = -0.132
Sequence = TACCTGGA; result = -0.109
Sequence = ACAAAGAC; result = 0.0669
Sequence = GTCCGGGA; result = -0.26
Sequence = AACTTCCT; result = 0.0149
Sequence = ATACCCCA; result = -0.0301

Repeated from above (study 5):
Sequence = TACCATGA; result = 0.133
Sequence = AAACCGGA; result = 0.0496
Sequence = GCCCAAAC; result = -0.178
Sequence = AGGAACAA; result = -0.0367
Sequence = TCCCCTAA; result = 0.0303
Sequence = CTGGATTC; result = -0.102
Sequence = CTTGTGAC; result = -0.0957
Sequence = CATCATGG; result = -0.167
Sequence = AGCAAGTC; result = -0.132
Sequence = TACCTGGA; result = -0.109
